Assay results gathered from unrelated publications.
± marks the error that the study gave.
SLC7A5: Large neutral amino acids transporter small subunit 1 (SLC7A5, Homo sapiens, UniProt Q01650)
OGT: UDP-N-acetylglucosamine--peptide N-acetylglucosaminyltransferase 110 kDa subunit (OGT, Homo sapiens, UniProt O15294)
PDIA3: Protein disulfide-isomerase A3 (PDIA3, Homo sapiens, UniProt P30101)
DPP9: Dipeptidyl peptidase 9 (DPP9, Homo sapiens, UniProt Q86TI2)
GLO1: Lactoylglutathione lyase (GLO1, Homo sapiens, UniProt Q04760)
PSMB5: Proteasome Macropain subunit MB1 (PSMB5, Homo sapiens, UniProt P28074)

The IC50 of `Nc1cc(COc2ccc3[nH]cc(CC(N)C(=O)O)c3c2)c2oc(-c3ccccc3)nc2c1` (stereo not shown) is reported as 18 µM (SLC7A5; transporter uptake, inhibitor, radiometric).
The IC50 of `Cc1ccc2c(c1C#Cc1ccc(O)cc1)C(c1ccc(O)cc1)(c1ccc(O)cc1)c1cc(O)ccc1-2` is reported as 0.11 µM (PDE4D (Homo sapiens, UniProt Q08499); enzyme activity, inhibitor, fluorescence).
The IC50 of `N[C@@H](Cc1c[nH]c2ccc(OCc3ccccc3I)cc12)C(=O)O` is reported as 17 µM (SLC7A5; transporter uptake, inhibitor, radiometric).
With `NCc1ccc(Cn2cc(Cc3cc(N)nc4[nH]nnc34)cn2)cc1` the IC50 was 0.013 µM (Myeloperoxidase (MPO, Homo sapiens, UniProt P05164); enzyme activity, inhibitor, fluorescence).
`N[C@@H](Cc1c[nH]c2cccc(OCc3ccccc3)c12)C(=O)O` gave an IC50 of over 100 µM (SLC7A5; transporter uptake, inhibitor, radiometric).
`N#Cc1cnc2sc(C(=O)O)cc2c1N1CCc2[nH]nc(C(=O)N[C@@H](CC(=O)NCCOCCN3CCOCC3)c3cccc(Br)c3)c2C1` gave an IC50 of over 100 µM (IL1R1 (Homo sapiens, UniProt P14778); reporter gene).
With `CCC1Sc2ccc(S(=O)(=O)CCC(=O)Nc3cccc4ccccc34)cc2NC1=O` (stereo not shown) the IC50 was 0.306 ± 0.031 µM (P2X purinoceptor 7 (P2rx7, Mus musculus, UniProt Q9Z1M0, A312V); ion current, whole-cell patch clamp).
`O=C(Oc1ccccc1)n1c(=O)oc2ccc(Cl)cc21` gave an IC50 of 6 µM (OGT; enzyme activity, inhibitor; added: UDP-GlcNAz, Nup62 substrate).
`CCCCCCCc1ccc(S(=O)(=O)N2CC2C(=O)OC)cc1` (stereo not shown) has an IC50 of over 200 µM (PDIA3; enzyme activity, inhibitor, absorbance; pH 7.6).
With `N=C(Cc1ccccc1)NCCC[C@H](N)C(=O)O` the IC50 was 5330 µM (Nos2 (Mus musculus, UniProt P29477); enzyme activity, inhibitor; pH 7.4).
With `COc1cc(C(C)C)c(Oc2cnc(N)nc2N)cc1I` the IC50 was over 10 µM (P2X purinoceptor 2 (P2rx2, Rattus norvegicus, UniProt P49653, I67V); ion current, patch clamp).
For `CCOc1cncc(-c2ccc(NC(=O)C(CC)c3ccnc(NS(=O)(=O)C4CC4)n3)nc2)n1` (stereo not shown), the IC50 was 0.018 µM (Ctps1 (Mus musculus, UniProt P70698); cell viability; CTPS-null Jurkat with mouse CTPS1; 3 days).
`CCC1(CC)C(=O)N(c2cccc(CN3CCN(Cc4ccc(Br)cc4)CC3)c2)C1=O` gave an IC50 of 0.409 µM (DPP9; cell-free assay, inhibitor).
`CC[C@H](C)[C@H](NC(=O)[C@H](CCCNC(=N)N)NC(=O)[C@H](CC(N)=O)NC(=O)[C@H](C)NC(=O)[C@H](Cc1c[nH]cn1)NC(=O)[C@@H](NC(=O)[C@H](CCC(N)=O)NC(=O)[C@@H]1CCCN1C(=O)[C@@H](N)CC(=O)O)[C@@H](C)O)C(=O)N[C@@H](Cc1c[nH]c2ccccc12)C(=O)N[C@@H](CCCNC(=N)N)C(=O)N[C@@H](CCSC)C(=O)N[C@H](C(=O)N[C@@H](CCCCN)C(=O)N[C@@H](CC(C)C)C(=O)N[C@@H](Cc1c[nH]c2ccccc12)C(=O)N[C@@H](CC(C)C)C(=O)NCC(=O)O)[C@@H](C)CC` has an IC50 of 32 ± 5.7 µM (Hsp90; luciferase refolding, inhibitor; rabbit reticulocyte lysate; added: heat-denatured luciferase).
With `CC(=O)N[C@@H]1[C@@H](O)[C@H](O)[C@@H](CO)O[C@@H]1CP(=O)(O)OP(=O)(O)OC[C@H]1O[C@@H](n2ccc(=O)[nH]c2=O)[C@H](O)[C@@H]1O` the IC50 was 41 µM (OGT; enzyme activity, inhibitor, radiometric).
`Nc1cccc2ccc(O)c(/N=N/c3ccc(S(N)(=O)=O)cc3)c12` gave an IC50 of 8.61 µM (GLO1; enzyme activity, inhibitor).
The IC50 of `NC1(Cc2ccc(Cl)cc2)CCN(c2ncnc3[nH]ccc23)CC1` is reported as 2.32 µM (Trpm7 (Mus musculus, UniProt Q923J1, F924A); calcium signal).
`c1ccc(CSc2nc3ccccc3cc2CNCCC2CCN(C3CCCC3)CC2)cc1` gave an IC50 of 0.479 µM (atpE/atpB (Acinetobacter baumannii, UniProt A3M139+B2I0Z6); inhibitor; Acinetobacter baumannii, inner membrane vesicles).
`C=C(NC(=O)C(=C)NC(=O)c1csc(C2=NC3c4csc(n4)C4NC(=O)c5csc(n5)C(C(C)(O)C(C)O)NC(=O)C5CSC(=N5)C(=CC)NC(=O)C(C)NC(=O)c5csc(n5)C3(CC2)NC(=O)C(C)NC(=O)C(=C)NC(=O)C(C)NC(=O)C(C(C)CC)NC2C=Cc3c(C(C)O)cc(nc3C2O)C(=O)OC4C)n1)C(N)=O` (stereo not shown) gave an IC50 of 0.57 ± 0.05 µM (PSMB5; chymotrypsin-like activity, inhibitor; purified 20S proteasome; 15 min preincubation, 37 °C, added: Suc-Leu-Leu-Val-Tyr-AMC substrate).
With `O=C(NN1CCS(=O)(=O)CC1)c1ccncc1Nc1ccc(I)cc1F` the IC50 was 0.03 µM (MAP2K1 (Homo sapiens, UniProt Q02750); enzyme activity, inhibitor, radiometric).
For `C=C(NC(=O)C(=C)NC(=O)c1csc(C2=NC3c4csc(n4)C4NC(=O)c5csc(n5)C(C(C)(O)C(C)O)NC(=O)C5CSC(=N5)C(=CC)NC(=O)C(C(C)O)NC(=O)c5csc(n5)C3(CC2)NC(=O)C(C)NC(=O)C(=C)NC(=O)CNC(=O)C(C(C)CC)NC2C=Cc3c(C(C)O)cc(nc3C2O)C(=O)OC4C)n1)C(N)=O` (stereo not shown), the IC50 was 0.76 ± 0.12 µM (PSMB5; chymotrypsin-like activity, inhibitor; purified human 20S proteasome; 37 °C, 15 min preincubation, added: Suc-Leu-Leu-Val-Tyr-AMC).
For `N=C(NCCCC(N)C(N)=O)NCCSCC1OC(n2cnc3c(N)ncnc32)C(O)C1O` (stereo not shown), the IC50 was over 100 µM (N-terminal Xaa-Pro-Lys N-methyltransferase 1 (Homo sapiens, UniProt Q9BV86); enzyme activity, inhibitor, fluorescence).
With `OC[C@@H]1NC[C@H](O)[C@@H]1O` the IC50 was 270 µM (Golgi alpha-mannosidase IIb (Drosophila melanogaster, UniProt Q9VF33); pH 6.0, 0.5 mM CoCl2, added: 2 mM pNP-Man).
The IC50 of `O=C1c2oc3cc(O)c(O)cc3c2C(=O)c2oc3cc(O)c(O)cc3c21` is reported as 5 µM (Cytochrome P450 2A6 (CYP2A6, Homo sapiens, UniProt P11509); enzyme activity, inhibitor; human, liver microsomes; 1 h, pH 7.4).
For `Cc1[nH]c2ccccc2c1CCNC(=O)c1cccs1`, the IC50 was 32 µM (ACTR2/ACTR3 (Bos taurus, UniProt A7MB62+P61157); actin polymerization, inhibitor, pyrenyl-actin; 3 µM actin, 30% pyrenyl, added: 5 nM Arp2/3 complex, 1 µM N-WASp-VCA).
The IC50 of `Cc1ccc(OCC(=O)N[C@@H](Cc2cn(CCNC(=O)c3ccc(S[C@@H]4O[C@H](CO)[C@H](O)[C@H](O)[C@H]4O)cc3)nn2)C(=O)NCCO)cc1` is reported as 60.7 µM (lecA (Pseudomonas aeruginosa, UniProt Q05097); ligand displacement, FP).
`CCCCCCCCCCCCc1ccc(S(=O)(=O)N2CC2C(=O)OC)cc1` (stereo not shown) gave an IC50 of over 200 µM (PDIA3; enzyme activity, inhibitor, absorbance; pH 7.6).
`CC(C)c1nnc(-c2cccc(Nc3ncnn4ccc(CN5CCC(N)CC5)c34)c2)s1` gave an IC50 of 0.057 µM (AAK1 (Homo sapiens, UniProt Q2M2I8); enzyme activity, inhibitor).
With `NS(=O)(=O)c1ccc(/N=N/c2cc3ccc(=O)oc3cc2O)cc1` the IC50 was 33.1 µM (GLO1; enzyme activity, inhibitor).
With `C=C(NC(=O)C(=C)NC(=O)c1csc(C2=NC3c4csc(n4)C4NC(=O)c5csc(n5)C(C(C)(O)C(C)O)NC(=O)C5CSC(=N5)C(=CC)NC(=O)C(C(C)O)NC(=O)c5csc(n5)C3(CC2)NC(=O)C(CC(N)=O)NC(=O)C(=C)NC(=O)C(C)NC(=O)C(C(C)CC)NC2C=Cc3c(C(C)O)cc(nc3C2O)C(=O)OC4C)n1)C(N)=O` (stereo not shown) the IC50 was 0.89 ± 0.17 µM (PSMB5; chymotrypsin-like activity, inhibitor; purified 20S proteasome; 15 min preincubation, 37 °C, added: Suc-Leu-Leu-Val-Tyr-AMC substrate).
With `CC(C)NC(=O)NNS(=O)(=O)c1ccc2c(c1)n(C)c(=O)c(=O)n2C` the IC50 was over 100 µM (DPP9; enzyme activity, inhibitor, fluorescence).
For `Cc1cccn2nc(-c3ccc(F)cc3)c(-c3ccncc3)c12`, the IC50 was over 15 µM (CSNK1A1 (Homo sapiens, UniProt P48729); enzyme activity, inhibitor, ADP detection).
With `COc1c(/C=C/C(=O)c2ccc(O)cc2)ccc(O)c1CC=C(C)C` the IC50 was 26.6 µM (Prothrombin (F2, Homo sapiens, UniProt P00734); enzyme activity, inhibitor, fluorescence; with preincubation).
`CC(C)NC(=O)[C@H](CCc1ccccc1)NC(=O)[C@H](CC(=O)NCC(C)(C)C)NC(=O)CCc1ccccc1` gave an IC50 of over 100 µM (Proteasome subunit beta type-3/PSMB7 (Homo sapiens, UniProt P49720+Q99436); inhibitor).
`CC(C)C[C@H](NC(=O)[C@H](CC(N)=O)NC(=O)[C@H](CC(C)C)NC(=O)[C@@H](NC(=O)[C@@H](NC(=O)[C@@H]1CCCN1C(=O)[C@H](CCCNC(=N)N)NC(=O)[C@H](CCCCN)NC(=O)[C@@H]1CCCN1)[C@@H](C)O)[C@@H](C)O)C(=O)N[C@@H](Cc1ccccc1)C(=O)NCCCCCC(=O)N[C@@H](CCCNC(=N)N)C(=O)N[C@@H](CCCNC(=N)N)C(=O)N[C@@H](CCCNC(=N)N)C(=O)N[C@@H](CCC(N)=O)C(=O)N[C@@H](CCCNC(=N)N)C(=O)N[C@@H](CCCNC(=N)N)C(=O)N[C@@H](CCCCN)C(=O)N[C@@H](CCCCN)C(=O)N[C@@H](CCCNC(=N)N)C(=O)NCC(N)=O` gave an IC50 of 0.092 ± 0.003 µM (MAPK9 (Homo sapiens, UniProt P45984); kinase activity, inhibitor, radiometric; pH 7.5, 30 °C, added: GST-c-Jun substrate).
`CN(C)c1ccc2c(c1)C(=O)N(CCS)C2=O` gave an IC50 of 12.9 µM (blaNDM-1 (Klebsiella pneumoniae, UniProt C7C422); enzyme activity, inhibitor; pH 7).
`COc1ccc2c(c1)CC[C@H]1[C@@H]3[C@H](OCCC#N)CC(=O)[C@@]3(C)CC[C@H]21` gave an IC50 of 0.42 to 0.64 µM (HSD17B1 (Homo sapiens, UniProt P14061); enzyme activity, inhibitor, radiometric).
With `Cc1cc(N2CC[C@@](C#N)(C3(C)CC3)C2=O)cc(C(=O)NCc2cc(F)cc(-c3cnn(C)c3)c2)n1` the IC50 was over 1 µM (panel of 303 human kinases; enzyme activity; all kinases).
`CCOC(=O)c1cc2c(N)c(C(=O)OC)sc2nc1C` has an IC50 of 2.01 µM (Urea transporter 1 (Mus musculus, UniProt Q8VHL0); transporter uptake, inhibitor).
`COc1ccc(-c2cc(C(F)(F)F)nc(S(=O)(=O)NCC(=O)Nc3ccc(C)cc3)n2)cc1` gave an IC50 of over 50 µM (BLM (Homo sapiens, UniProt P54132); enzyme activity, inhibitor, ADP detection).
